Assay results gathered from unrelated publications.
Parts stem from different laboratories: compare values within a part only. Changes are numbered by the printed parent chain.

Study 1 — technique: universal PBM; molecule type: double-stranded DNA, one strand shown; matrix: in vitro; tested at: 600 nM; direction: higher = stronger binding
Target: Sal-like protein 4, full length isoform A (SALL4, Homo sapiens, UniProt Q9UJQ4, residues 1-1053)
Chain of UniProt Q9UJQ4 (whole entry, looked up): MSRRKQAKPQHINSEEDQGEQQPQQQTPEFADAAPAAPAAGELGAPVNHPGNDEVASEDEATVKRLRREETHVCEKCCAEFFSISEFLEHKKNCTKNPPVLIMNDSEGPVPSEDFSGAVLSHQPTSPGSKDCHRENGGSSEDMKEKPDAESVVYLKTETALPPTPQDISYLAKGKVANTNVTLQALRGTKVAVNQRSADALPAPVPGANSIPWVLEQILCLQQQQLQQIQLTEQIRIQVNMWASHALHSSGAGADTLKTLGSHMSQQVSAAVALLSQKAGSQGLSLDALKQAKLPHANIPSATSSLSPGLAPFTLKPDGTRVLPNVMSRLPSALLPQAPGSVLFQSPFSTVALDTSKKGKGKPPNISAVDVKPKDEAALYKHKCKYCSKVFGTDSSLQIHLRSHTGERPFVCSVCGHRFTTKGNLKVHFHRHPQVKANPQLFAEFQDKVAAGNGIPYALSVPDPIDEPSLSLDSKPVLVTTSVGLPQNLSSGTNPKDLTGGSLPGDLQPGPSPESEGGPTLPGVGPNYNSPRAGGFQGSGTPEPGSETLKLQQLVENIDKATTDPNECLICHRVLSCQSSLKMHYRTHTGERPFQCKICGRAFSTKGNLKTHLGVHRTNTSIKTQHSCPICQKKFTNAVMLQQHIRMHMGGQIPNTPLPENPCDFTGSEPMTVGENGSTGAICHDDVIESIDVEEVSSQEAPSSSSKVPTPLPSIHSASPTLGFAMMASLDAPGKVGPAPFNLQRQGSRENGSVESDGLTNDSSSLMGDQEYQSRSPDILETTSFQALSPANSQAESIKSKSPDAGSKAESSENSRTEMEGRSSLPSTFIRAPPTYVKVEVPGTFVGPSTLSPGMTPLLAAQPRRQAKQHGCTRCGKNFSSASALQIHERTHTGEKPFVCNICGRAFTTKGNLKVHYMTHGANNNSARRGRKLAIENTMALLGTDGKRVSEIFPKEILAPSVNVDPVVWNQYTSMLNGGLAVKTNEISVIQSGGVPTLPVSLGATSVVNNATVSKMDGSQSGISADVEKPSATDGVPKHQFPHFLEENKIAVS
Notes: 8-mer, flanks averaged, mean of replicates
Sequence	E-score
ATAGCACG	-0.00328
CTCCGAGC	-0.169
ACTCGAGT	0.0417
ATTAATCA	0.309
AGTGTGCG	-0.151
GCCGAGCC	-0.186
TGCTCGAA	-0.0179
GCCTGAAC	-0.236

Study 2 — effect on: peptide-MHC binding; molecule type: peptide; tested at: concentration not given
Target: HLA class I histocompatibility antigen, A alpha chain, allele A*25:01 (Homo sapiens, UniProt P04439)
Molecule	binding
RRAYSGKQY	inactive
SWHHTSDDF	inactive
TVYGLGADV	inactive
LAYLAGWII	inactive
GIVCYNEEV	inactive
TTFPVNGGY	inactive

Study 3 — target: CCNB1, cyclin fold, Cln2 fusion (human); technique: yeast growth competition, sequencing; matrix: yeast; notes: strong parent motif; reference: not given; direction: higher = stronger binding
Starting sequence: viral docking peptide; KGVKRKLFAEDSS; partner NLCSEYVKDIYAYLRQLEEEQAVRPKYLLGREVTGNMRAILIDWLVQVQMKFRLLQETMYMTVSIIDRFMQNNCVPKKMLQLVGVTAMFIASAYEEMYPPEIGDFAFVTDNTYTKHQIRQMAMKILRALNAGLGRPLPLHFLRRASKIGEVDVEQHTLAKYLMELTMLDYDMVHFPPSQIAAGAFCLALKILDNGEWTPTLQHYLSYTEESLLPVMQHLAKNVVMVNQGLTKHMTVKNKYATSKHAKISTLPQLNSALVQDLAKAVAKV
Variant	normalised enrichment score
KGVKRKLCAEDSS [F8C]	0.287
KGVKRKIFAEDSS [L7I]	0.401
KGVKRKTFAEDSS [L7T]	0.377
KGVKRKLWAEDSS [F8W]	0.301
KGTKRKLFAEDSS [V3T]	0.595
KGVKRKLFAEDCS [S12C]	2.77
KGVKEKLFAEDSS [R5E]	0.223

Study 4 — target: UBE2W UBC core domain (UniProt Q96B02); technique: yeast two-hybrid; matrix: yeast; notes: mostly zero background; reference: not given; direction: higher = stronger interaction
Chain of UniProt Q96B02 (whole entry, looked up): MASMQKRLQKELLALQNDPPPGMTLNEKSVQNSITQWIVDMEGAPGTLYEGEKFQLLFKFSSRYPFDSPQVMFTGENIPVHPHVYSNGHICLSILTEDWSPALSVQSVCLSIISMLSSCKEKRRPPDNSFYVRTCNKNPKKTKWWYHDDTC
B1: TRIM74 RING domain (UniProt Q86UV6); chain SLLELEDWLQCPICLEVFKESLMLQCGHSYCKGCLVSLSYHLDTKVRCPMCWQVVDGSSSLP
B2: RNF7 RING domain (UniProt Q9UBF6); chain AICRVQVMDACLRCQAENKQEDCVVVWGECNHSFHNCCMSLWVKQNNRCPLCQQDWVVQRIGK
B3: TRIM2 RING domain (UniProt Q9C040); chain VRQIDKQFLICSICLERYKNPKVLPCLHTFCERCLQNYIPAHSLTLSCPVCRQTSILPEKGV
B4: ARIH1 RING domain (UniProt Q9Y4X5); chain NTRSSAQDMPCQICYLNYPNSYFTGLECGHKFCMQCWSEYLTTKIMEEGMGQTISCPAHGCDILVDDNTVM
B5: PJA2 RING domain (UniProt O43164); chain DHTAIGQEQCCPICCSEYIKDDIATELPCHHFFHKPCVSIWLQKSGTCPVCRRHFPPAVIEA
B6: RFPL3 RING domain (UniProt O75679); chain MAALFQEASSCPVCSDYLEKPMSLECGCTVCLKCINSLQKEPHGEDLLCCCCSMVSQRNKIRP
B7: CBLL1 RING domain (UniProt Q75N03); chain GEKDDTPVHFCDKCGLPIKIYGRMIPCKHVFCYDCAILHEKKGDKMCPGCSDPVQRIEQCT
B8: RNF130 RING domain (UniProt Q86XS8); chain DKETDPDFDHCAVCIESYKQNDVVRILPCKHVFHKSCVDPWLSEHCTCPMCKLNILKALGIV
B9: MARCHF2 RING domain (UniProt Q9P0N8); chain RLLSTVIRALDTPSDGPFCRICHEGANGECLLSPCGCTGTLGAVHKSCLEKWLSSSNTSYCELCHTEFAVEKRPRPLTEWL
B10: RMND5B RING domain (UniProt Q96G75); chain MKCWYHSVFACPILRQQTSDSNPPIKLICGHVISRDALNKLINGGKLKCPYCPMEQNPADGK
B11: TRIM28 RING domain (UniProt Q13263); chain GAEALELLEHCGVCRERLRPEREPRLLPCLHSACSACLGPAAPAAANSSGDGGAAGDGTVVDCPVCKQQCFSKDIVE
Molecule	lacZ reporter activity
B1 (TRIM74 RING domain)	0
B2 (RNF7 RING domain)	0
B3 (TRIM2 RING domain)	0
B4 (ARIH1 RING domain)	0
B5 (PJA2 RING domain)	5710
B6 (RFPL3 RING domain)	0
B7 (CBLL1 RING domain)	0
EIKDYKARLTCPCCNMRKKDAVLTKCFHVFCFECVKTRYDTRQRKCPKCNAAFGANDFHR (RNF20 RING domain (UniProt Q5VTR2))	0
B8 (RNF130 RING domain)	0
VPADASPDSKCPICLDRFDNVSYLDRCLHKFCFRCVQEWSKNKAECPLCKQPFDSIFHSV (TOPORS RING domain (UniProt Q9NS56))	16300
B9 (MARCHF2 RING domain)	0
B10 (RMND5B RING domain)	6670
B11 (TRIM28 RING domain)	0
MEEMEEELKCPVCGSFYREPIILPCSHNLCQACARNILVQTPESESPQSHRAAGSGVSDY (TRIM9 RING domain (UniProt Q9C026))	0
GSEEEEIPFRCFICRQAFQNPVVTKCRHYFCESCALEHFRATPRCYICDQPTGGIFNPA (RNF113B RING domain (UniProt Q8IZP6))	0
KITELNPHLMCALCGGYFIDATTIVECLHSFCKTCIVRYLETNKYCPMCDVQVHKTRPLL (PCGF2 RING domain (UniProt P35227))	0

A few entries again (study 3):
Variant	normalised enrichment score
KGVKRKLCAEDSS [F8C]	0.287
KGVKRKIFAEDSS [L7I]	0.401
KGVKRKTFAEDSS [L7T]	0.377
